Experimental data from different studies.
Numbered parts are unrelated; each lists some results of a single study.
UniProt P19784, sequence (whole entry, looked up): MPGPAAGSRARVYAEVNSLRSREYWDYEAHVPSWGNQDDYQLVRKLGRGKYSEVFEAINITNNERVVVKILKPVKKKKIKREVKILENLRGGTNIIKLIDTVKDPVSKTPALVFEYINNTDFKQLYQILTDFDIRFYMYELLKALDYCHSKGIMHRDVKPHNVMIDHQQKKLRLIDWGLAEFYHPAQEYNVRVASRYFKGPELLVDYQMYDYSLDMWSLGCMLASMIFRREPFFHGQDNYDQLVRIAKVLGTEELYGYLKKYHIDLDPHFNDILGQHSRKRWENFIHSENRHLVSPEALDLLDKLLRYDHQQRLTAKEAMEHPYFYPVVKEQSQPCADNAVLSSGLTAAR
UniProt Q12851, sequence (whole entry, looked up): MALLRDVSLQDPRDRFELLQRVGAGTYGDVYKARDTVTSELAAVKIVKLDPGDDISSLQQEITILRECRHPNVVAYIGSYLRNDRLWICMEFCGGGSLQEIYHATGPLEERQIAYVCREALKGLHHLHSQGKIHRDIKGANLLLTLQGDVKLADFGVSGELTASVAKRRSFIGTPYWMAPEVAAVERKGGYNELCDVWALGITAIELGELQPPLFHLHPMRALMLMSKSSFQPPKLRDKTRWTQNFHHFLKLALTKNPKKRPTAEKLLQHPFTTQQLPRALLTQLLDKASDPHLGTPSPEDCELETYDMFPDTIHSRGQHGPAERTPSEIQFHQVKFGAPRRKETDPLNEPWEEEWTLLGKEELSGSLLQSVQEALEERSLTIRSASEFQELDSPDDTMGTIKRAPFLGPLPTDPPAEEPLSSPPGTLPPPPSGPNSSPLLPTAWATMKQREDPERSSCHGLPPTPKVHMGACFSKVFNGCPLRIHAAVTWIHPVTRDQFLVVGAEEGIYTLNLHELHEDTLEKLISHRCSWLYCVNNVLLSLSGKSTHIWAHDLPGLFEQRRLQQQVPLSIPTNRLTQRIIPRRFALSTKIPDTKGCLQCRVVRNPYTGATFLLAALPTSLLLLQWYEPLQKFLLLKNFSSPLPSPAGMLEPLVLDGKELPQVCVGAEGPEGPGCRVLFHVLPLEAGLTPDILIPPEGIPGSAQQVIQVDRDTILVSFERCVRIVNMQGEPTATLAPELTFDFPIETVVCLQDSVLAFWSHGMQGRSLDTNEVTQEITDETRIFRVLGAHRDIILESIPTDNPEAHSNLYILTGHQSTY
UniProt Q13873, sequence (whole entry, looked up): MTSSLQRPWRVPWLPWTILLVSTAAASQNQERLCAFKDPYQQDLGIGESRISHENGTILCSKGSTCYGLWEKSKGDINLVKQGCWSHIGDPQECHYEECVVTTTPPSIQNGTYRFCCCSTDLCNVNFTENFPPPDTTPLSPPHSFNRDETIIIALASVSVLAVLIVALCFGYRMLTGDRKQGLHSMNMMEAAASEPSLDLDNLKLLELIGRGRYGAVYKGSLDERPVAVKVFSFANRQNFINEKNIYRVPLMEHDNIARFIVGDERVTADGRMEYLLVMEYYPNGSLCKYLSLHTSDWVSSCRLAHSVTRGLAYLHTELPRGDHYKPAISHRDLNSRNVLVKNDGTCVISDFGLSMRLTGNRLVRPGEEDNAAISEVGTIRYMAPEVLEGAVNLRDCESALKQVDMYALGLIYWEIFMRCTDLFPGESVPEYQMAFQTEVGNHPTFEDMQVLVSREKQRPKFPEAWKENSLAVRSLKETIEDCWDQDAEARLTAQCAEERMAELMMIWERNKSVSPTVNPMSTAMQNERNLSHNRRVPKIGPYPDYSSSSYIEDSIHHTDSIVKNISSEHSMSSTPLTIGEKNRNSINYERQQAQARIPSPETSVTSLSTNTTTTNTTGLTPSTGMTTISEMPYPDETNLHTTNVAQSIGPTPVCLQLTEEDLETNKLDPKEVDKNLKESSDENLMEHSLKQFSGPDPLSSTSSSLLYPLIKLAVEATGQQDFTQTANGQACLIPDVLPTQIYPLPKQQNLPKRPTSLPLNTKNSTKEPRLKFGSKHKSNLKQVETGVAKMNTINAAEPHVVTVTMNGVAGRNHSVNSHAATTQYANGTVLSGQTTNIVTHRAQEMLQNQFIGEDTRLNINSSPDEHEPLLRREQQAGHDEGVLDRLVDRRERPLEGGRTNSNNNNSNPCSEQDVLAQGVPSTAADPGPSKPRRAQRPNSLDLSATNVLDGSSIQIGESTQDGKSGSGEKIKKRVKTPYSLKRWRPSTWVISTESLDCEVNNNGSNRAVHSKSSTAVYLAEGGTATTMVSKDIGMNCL
UniProt O15111, sequence (whole entry, looked up): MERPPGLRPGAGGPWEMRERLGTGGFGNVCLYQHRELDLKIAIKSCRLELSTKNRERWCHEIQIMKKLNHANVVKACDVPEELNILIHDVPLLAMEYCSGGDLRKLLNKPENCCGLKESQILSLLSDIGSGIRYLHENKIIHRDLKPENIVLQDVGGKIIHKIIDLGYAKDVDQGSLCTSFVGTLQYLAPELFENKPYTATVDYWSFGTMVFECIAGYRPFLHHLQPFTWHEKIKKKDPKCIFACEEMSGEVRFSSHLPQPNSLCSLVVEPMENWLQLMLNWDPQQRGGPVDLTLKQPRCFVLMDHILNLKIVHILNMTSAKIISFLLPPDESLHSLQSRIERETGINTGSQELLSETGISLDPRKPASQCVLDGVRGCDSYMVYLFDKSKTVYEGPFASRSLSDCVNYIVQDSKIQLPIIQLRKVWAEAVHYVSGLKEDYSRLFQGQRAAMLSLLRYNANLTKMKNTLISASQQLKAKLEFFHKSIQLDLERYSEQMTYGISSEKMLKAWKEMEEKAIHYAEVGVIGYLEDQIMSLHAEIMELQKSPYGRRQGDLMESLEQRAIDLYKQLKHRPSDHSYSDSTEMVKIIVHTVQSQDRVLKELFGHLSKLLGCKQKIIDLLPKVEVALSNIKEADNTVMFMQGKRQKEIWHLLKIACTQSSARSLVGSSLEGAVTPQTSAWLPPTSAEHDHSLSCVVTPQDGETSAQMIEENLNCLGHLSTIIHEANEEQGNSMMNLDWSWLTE
UniProt Q9H1R3, sequence (whole entry, looked up): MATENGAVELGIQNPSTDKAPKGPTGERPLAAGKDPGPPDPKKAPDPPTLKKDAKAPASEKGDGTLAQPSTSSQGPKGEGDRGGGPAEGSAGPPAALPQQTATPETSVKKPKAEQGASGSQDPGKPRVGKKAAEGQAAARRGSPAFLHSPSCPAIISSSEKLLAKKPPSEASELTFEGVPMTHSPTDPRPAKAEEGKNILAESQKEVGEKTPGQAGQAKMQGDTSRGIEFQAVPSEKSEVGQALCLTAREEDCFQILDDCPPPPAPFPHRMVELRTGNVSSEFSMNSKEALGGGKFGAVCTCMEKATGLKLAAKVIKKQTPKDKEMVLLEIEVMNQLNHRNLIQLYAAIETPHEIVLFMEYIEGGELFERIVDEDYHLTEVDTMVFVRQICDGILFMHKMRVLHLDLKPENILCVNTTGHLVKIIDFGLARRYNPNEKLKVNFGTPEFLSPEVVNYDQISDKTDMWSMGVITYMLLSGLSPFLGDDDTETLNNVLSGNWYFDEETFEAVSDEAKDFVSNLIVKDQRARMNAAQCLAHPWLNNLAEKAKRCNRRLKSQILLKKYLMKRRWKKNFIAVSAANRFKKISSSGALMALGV
UniProt P36896, sequence (whole entry, looked up): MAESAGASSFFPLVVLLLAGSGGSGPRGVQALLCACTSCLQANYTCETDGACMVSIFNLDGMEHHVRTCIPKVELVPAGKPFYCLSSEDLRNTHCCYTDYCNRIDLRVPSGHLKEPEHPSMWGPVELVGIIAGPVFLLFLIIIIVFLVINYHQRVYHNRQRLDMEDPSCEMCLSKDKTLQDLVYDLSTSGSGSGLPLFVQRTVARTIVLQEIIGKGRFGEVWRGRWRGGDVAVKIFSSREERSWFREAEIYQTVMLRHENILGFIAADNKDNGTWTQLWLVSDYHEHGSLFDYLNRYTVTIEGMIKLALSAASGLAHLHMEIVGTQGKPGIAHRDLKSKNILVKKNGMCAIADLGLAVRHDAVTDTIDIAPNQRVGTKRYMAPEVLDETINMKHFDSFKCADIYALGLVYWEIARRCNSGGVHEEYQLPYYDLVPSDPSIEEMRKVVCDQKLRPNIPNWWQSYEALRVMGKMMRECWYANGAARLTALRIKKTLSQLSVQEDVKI

Sample 1
Target: Centromere-binding protein 1, full length, N-terminal tag (CBF1, Saccharomyces cerevisiae, UniProt P17106, residues 1-351)
UniProt P17106, sequence (whole entry, looked up): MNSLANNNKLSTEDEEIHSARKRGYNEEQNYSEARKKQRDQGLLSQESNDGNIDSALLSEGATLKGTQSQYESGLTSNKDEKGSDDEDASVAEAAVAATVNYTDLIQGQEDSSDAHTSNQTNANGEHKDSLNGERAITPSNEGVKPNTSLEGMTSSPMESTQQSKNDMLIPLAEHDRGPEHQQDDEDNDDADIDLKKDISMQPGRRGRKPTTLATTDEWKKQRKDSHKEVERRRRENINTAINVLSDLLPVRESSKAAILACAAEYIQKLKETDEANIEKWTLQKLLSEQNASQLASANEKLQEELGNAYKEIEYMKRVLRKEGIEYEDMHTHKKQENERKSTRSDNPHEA
Method: protein-binding microarray
Molecule type: double-stranded DNA, one strand shown
Medium: in vitro
Concentration: 0.8 µM
Notes: whole 60-bp probe, no competitor
Reading: higher = stronger binding
Quantity: fluorescence intensity
Sequence = CCTAACTACTATATGGACGTGAGATAGCTTCGTACAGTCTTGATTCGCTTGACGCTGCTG; result = 507 a.u.
Sequence = GAATTTTTTGTGTGGCATGTGCAGCGAGCGATGTAGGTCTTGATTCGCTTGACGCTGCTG; result = 839 a.u.
Sequence = CTATTCTTGCTAACCAACGTGTTGTATATGAAATTCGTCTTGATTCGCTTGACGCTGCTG; result = 579 a.u.
Sequence = CTAATGGTTCTAGTTAGTCACGTGCAGCTTTTTTTCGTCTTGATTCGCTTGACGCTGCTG; result = 21300 a.u.
Sequence = GAATGTGCTACAGCCGTGGTGGTTAACCCCCTTTAGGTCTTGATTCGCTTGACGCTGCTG; result = 478 a.u.
Sequence = CTACTGGTTTCCTGATACATCATGCACGCCCGTTTCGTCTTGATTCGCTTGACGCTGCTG; result = 526 a.u.
Sequence = CTATATAATACTCAACACGTGACTTCAGCCTTCTTCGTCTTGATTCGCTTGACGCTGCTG; result = 13900 a.u.
Sequence = CTACCCTGGTTTGGTCACGCAAAACCGAAAGGCTTCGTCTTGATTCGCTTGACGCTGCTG; result = 654 a.u.

Sample 2
SMILES: N#Cc1ccc(Nc2ccc3[nH]c(=O)[nH]c3c2)c(Cl)c1
Observed: cell-free assay
Method: competition with immobilised ligand
Concentration: 1 µM
Quantity: remaining binding
target = Receptor-type tyrosine-protein kinase FLT3, autoinhibited (FLT3, Homo sapiens, UniProt P36888); result = 97%
target = Bone morphogenetic protein receptor type-2 (BMPR2, Homo sapiens, UniProt Q13873); result = 91%
target = Myosin light chain kinase 2, skeletal/cardiac muscle (MYLK2, Homo sapiens, UniProt Q9H1R3); result = 99%
target = Mitogen-activated protein kinase kinase kinase 1 (MAP3K1, Homo sapiens, UniProt Q13233); result = 79%
target = Inhibitor of nuclear factor kappa-B kinase subunit alpha (CHUK, Homo sapiens, UniProt O15111); result = 100%
target = Casein kinase II subunit alpha' (CSNK2A2, Homo sapiens, UniProt P19784); result = 83%
target = Mitogen-activated protein kinase kinase kinase kinase 2 (MAP4K2, Homo sapiens, UniProt Q12851); result = 100%
target = Activin receptor type-1B (ACVR1B, Homo sapiens, UniProt P36896); result = 100%

Sample 3
Target: Serine/threonine-protein kinase 26 (STK26, Homo sapiens, UniProt Q9P289)
UniProt Q9P289, sequence (whole entry, looked up): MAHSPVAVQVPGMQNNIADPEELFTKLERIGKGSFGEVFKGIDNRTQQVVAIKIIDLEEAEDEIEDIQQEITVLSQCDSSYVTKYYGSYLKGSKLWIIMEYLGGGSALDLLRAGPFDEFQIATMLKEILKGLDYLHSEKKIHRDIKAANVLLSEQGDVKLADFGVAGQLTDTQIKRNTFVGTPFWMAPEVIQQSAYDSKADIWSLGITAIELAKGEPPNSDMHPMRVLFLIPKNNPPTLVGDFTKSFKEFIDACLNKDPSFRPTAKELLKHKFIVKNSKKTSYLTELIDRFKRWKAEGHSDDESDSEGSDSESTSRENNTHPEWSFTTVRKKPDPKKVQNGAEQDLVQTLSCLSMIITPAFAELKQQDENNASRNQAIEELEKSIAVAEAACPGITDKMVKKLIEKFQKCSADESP
Observed: enzyme activity
Mode: inhibitor
Concentration: 0.5 µM
Reference: control
Quantity: remaining activity
SMILES = Cn1nc2c3c(cccc31)C(=O)c1ccccc1-2; result = 108%
SMILES = CCN(CC)CCNC(=O)c1c(C)[nH]c(/C=C2\C(=O)Nc3ccc(Cl)cc32)c1C; result = 73.2%
SMILES = O=C1c2ccccc2-c2n[nH]c3cccc1c23; result = 83.4%
SMILES = Ic1cccc(CSc2nnc(-c3ccncc3)o2)c1; result = 103%
SMILES = CCOc1nc(NC(=O)Cc2cc(OC)ccc2OC)cc(N)c1C#N; result = 104%
SMILES = COc1cc2ncnc(Nc3ccc(O)c(Br)c3)c2cc1OC; result = 90.2%
SMILES = O=C1C(Cl)=C(N2C(=O)CCC2=O)C(=O)c2ccccc21; result = 98.3%
SMILES = COc1cc2ncnc(Nc3cccc(Cl)c3)c2cc1OC; result = 108%
SMILES = N#Cc1c(NC(=O)c2cccc3ccccc23)sc2c1CCCC2; result = 102%
SMILES = Nc1cccc(-c2cc3c(Oc4cccc(O)c4)ncnc3[nH]2)c1; result = 83.8%
SMILES = CN(C)C[C@H]1CCn2c(c(C3=C(c4cn(C)c5ccccc45)C(=O)NC3=O)c3ccccc32)C1; result = 78%
SMILES = C[C@@H]1CCN(C(=O)CC#N)C[C@@H]1N(C)c1ncnc2[nH]ccc12; result = 105%

Mixed results
SMILES = COc1ccc(-c2c(Nc3ccccn3)[nH]c3c(C4=CCCCC4)c(-c4ccccc4)nn3c2=O)cc1; test = LC-MS/MS non-compartmental; test system = human, plasma; setting = oral, 200 mg twice daily, day 15 of cycle 1, multiple dose, geometric mean; quantity = effective half-life; result = 98.8 h
SMILES = O=C1CCC(N2Cc3cc(C4CCN(Cc5ccccc5)CC4)ccc3C2=O)C(=O)N1 (stereo not shown); test system = ICR mouse, male, plasma; setting = intravenous, 1.0 mg/kg; quantity = Vss; result = 9.39 L/kg
SMILES = CC(C)n1cnc(-c2ccc(F)cc2)c1-c1ncc(C(=O)Nc2ccc(N3CCN(C)CC3)cc2)[nH]1; test system = human, idiopathic pulmonary fibrosis; setting = 60 mg once daily, trial, treatment-emergent; quantity = patients with left ventricular dysfunction; result = 0%

A few entries again (sample 2):
target = Inhibitor of nuclear factor kappa-B kinase subunit alpha (CHUK, Homo sapiens, UniProt O15111); result = 100%
target = Casein kinase II subunit alpha' (CSNK2A2, Homo sapiens, UniProt P19784); result = 83%
target = Mitogen-activated protein kinase kinase kinase kinase 2 (MAP4K2, Homo sapiens, UniProt Q12851); result = 100%
target = Mitogen-activated protein kinase kinase kinase 1 (MAP3K1, Homo sapiens, UniProt Q13233); result = 79%
